Measured values pooled from the literature.
Numbered parts are unrelated; each lists some results of a single study.

Series 1
Target: Protein-tyrosine kinase 6 (PTK6, Homo sapiens, UniProt Q13882)
UniProt Q13882, sequence (whole entry, looked up): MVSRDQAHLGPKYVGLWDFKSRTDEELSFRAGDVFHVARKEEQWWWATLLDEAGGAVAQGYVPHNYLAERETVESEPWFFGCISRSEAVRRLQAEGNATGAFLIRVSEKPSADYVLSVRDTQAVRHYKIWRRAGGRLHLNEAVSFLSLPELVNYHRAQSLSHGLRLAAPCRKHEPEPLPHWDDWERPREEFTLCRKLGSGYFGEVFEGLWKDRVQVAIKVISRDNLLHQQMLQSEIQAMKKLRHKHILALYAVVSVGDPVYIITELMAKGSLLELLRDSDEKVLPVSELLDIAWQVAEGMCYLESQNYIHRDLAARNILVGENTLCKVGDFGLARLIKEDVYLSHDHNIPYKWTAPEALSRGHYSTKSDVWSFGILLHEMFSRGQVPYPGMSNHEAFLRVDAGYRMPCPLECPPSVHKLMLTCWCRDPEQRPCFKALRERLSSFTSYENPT
Effect on: enzyme activity
Mode: inhibitor
Tested at: 0.5 µM
Reference: control
Quantity: remaining activity
Cc1cn(-c2cc(NC(=O)c3ccc(C)c(Nc4nccc(-c5cccnc5)n4)c3)cc(C(F)(F)F)c2)cn1: 70.4%
Cn1nc2c3c(cccc31)C(=O)c1ccccc1-2: 91.8%
c1ccc(-c2cnc(Nc3ccc(OCCN4CCCC4)cc3)s2)cc1: 80.8%
Cc1nc2cc3nc(-c4cccs4)cnc3cc2n1C: 88.6%
CN([C@@H](Cc1ccc(OS(=O)(=O)c2cccc3cnccc23)cc1)C(=O)N1CCN(c2ccccc2)CC1)S(=O)(=O)c1cccc2cnccc12: 89.7%
CCN(CC)C(=O)c1ccc(Nc2nc(OCC3CCCCC3)c3[nH]cnc3n2)cc1: 30.7%
O=C(NC(NC(=S)Nc1ccc(F)c([N+](=O)[O-])c1)C(Cl)(Cl)Cl)C(c1ccccc1)c1ccccc1 (stereo not drawn): 87.8%
O=c1cc(-c2cccc3c2Sc2ccccc2S3)oc(N2CCOCC2)c1: 90.6%
O=C1c2ccccc2-c2n[nH]c3cccc1c23: 94.1%
Cc1cc2ncc(-c3ccccc3)nc2cc1C: 93.6%
Nc1cccc(-c2cc3c(Oc4cccc(O)c4)ncnc3[nH]2)c1: 11.1%
C[C@@H]1CCN(C(=O)CC#N)C[C@@H]1N(C)c1ncnc2[nH]ccc12: 101%

Series 2
Target: D(1A) dopamine receptor (DRD1, Homo sapiens, UniProt P21728)
UniProt P21728, sequence (whole entry, looked up): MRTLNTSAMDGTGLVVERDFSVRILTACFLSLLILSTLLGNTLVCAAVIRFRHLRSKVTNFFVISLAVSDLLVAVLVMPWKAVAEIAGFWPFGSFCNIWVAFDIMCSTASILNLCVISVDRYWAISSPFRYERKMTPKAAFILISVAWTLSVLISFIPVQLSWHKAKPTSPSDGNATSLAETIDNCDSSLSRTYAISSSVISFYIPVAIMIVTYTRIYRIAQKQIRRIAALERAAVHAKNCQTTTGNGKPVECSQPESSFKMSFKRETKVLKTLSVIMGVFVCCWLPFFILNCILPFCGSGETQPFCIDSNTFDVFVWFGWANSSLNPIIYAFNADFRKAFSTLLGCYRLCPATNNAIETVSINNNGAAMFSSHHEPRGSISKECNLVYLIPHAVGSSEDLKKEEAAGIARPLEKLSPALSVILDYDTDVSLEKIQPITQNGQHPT
Effect on: ligand displacement
Tested at: 10 µM
Quantity: inhibition
COc1cc(C(=O)O)ncc1C#Cc1ccccc1NS(=O)(=O)c1cccc2c(N(C)C)ccnc12: 17.8%
C[C@@H](c1cccc(C#N)c1)n1cc(Cl)cc(C(N)=O)c1=N: -6.15%
Cc1ncc(-c2cc(Cl)ccc2F)cc1-n1c(=O)n(CC(N)=O)c2ccccc21: -2.08%
CS(=O)(=O)N1CCCC(NC(=O)[C@H](CCC2CCCCC2)NC(=O)c2ccc(CNC(=O)c3cnc4ccccn34)cc2)C1 (stereo partly drawn): -8.61%
Cc1ccc(-c2cnc([C@@]3(O)CC[C@H](C(=O)O)C(C)(C)C3)s2)cc1Nc1cccc(C(F)(F)F)n1: 6.27%

Series 3
Target: Beta-1 adrenergic receptor (ADRB1, Homo sapiens, UniProt P08588)
UniProt P08588, sequence (whole entry, looked up): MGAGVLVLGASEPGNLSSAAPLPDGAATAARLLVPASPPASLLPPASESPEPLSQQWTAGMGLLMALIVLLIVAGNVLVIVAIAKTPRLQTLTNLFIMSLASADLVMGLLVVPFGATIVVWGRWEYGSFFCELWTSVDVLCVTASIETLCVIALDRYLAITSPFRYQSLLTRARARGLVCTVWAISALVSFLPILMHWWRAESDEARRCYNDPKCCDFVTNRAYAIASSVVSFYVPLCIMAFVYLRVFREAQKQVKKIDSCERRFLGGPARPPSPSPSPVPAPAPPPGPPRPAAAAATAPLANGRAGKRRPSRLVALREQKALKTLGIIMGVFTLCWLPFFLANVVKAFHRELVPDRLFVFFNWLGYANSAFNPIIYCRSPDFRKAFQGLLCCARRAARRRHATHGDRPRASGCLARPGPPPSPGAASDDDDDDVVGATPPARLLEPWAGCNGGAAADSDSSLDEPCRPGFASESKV
Mode: agonist
Quantity: EC50
O=C(Nc1ccc([C@@H](O)[C@H]2COCC(=O)N2Cc2ccc(F)cc2)cc1)c1ccccc1: ≥ 100 µM
Cc1cc(F)ccc1-c1n[nH]c2ncc(-c3ccccc3)nc12: 39.8 µM
Cc1ccccc1-n1nc(-c2c(-c3ccc(F)cc3)nn3c2NC[C@@H](CO)C3)ccc1=O: ≥ 100 µM
Cc1cc(=O)oc2cc(CN(C)CC(C)N3CCOCC3)ccc12 (stereo not drawn): ≥ 100 µM
Cc1nc(-c2ccccc2)ccc1C(=O)NC1CCc2[nH]ncc2C1 (stereo not drawn): ≥ 100 µM
Cn1cc(-c2cnc(Nc3cccnc3)c3c2CCO3)cn1: ≥ 100 µM
COCCNCc1ccc(-c2cc3nccc(Oc4ccc(NC(=O)C5(C(=O)Nc6ccc(F)cc6)CC5)cc4F)c3s2)nc1: 14.1 µM

Series 4
Target: Synaptic vesicular amine transporter (SLC18A2, Homo sapiens, UniProt Q05940)
UniProt Q05940, sequence (whole entry, looked up): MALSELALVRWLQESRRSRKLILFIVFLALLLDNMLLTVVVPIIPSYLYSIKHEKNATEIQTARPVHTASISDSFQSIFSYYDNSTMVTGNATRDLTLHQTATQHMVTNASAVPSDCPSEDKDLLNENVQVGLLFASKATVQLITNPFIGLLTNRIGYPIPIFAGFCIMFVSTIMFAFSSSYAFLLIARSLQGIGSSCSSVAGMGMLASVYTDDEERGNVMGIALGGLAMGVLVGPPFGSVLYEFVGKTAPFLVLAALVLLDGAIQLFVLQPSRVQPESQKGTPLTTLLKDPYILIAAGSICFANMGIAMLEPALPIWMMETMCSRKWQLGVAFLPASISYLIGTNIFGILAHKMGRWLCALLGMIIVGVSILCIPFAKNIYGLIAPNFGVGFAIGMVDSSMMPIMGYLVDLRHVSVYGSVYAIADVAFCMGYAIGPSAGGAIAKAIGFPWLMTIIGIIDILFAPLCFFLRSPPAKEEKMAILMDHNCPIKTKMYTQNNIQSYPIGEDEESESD
Effect on: transporter uptake
Mode: inhibitor
Quantity: IC50
CC(C)(C)c1ccc(C(O)CCCN2CCC(C(O)(c3ccccc3)c3ccccc3)CC2)cc1 (stereo not drawn): 2.02 µM
COc1ccc(CCN2CCC(Nc3nc4ccccc4n3Cc3ccc(F)cc3)CC2)cc1: 0.107 µM
CCCc1nn(C)c2c(=O)[nH]c(-c3cc(S(=O)(=O)N4CCN(C)CC4)ccc3OCC)nc12: 3.96 µM
